Assay results pooled from the literature.
Compare with care: the assays were run in different laboratories. ± gives the spread as reported.
BCHE: Cholinesterase (BCHE, Homo sapiens, UniProt P06276)
Sequence of UniProt P06276 (whole entry, looked up): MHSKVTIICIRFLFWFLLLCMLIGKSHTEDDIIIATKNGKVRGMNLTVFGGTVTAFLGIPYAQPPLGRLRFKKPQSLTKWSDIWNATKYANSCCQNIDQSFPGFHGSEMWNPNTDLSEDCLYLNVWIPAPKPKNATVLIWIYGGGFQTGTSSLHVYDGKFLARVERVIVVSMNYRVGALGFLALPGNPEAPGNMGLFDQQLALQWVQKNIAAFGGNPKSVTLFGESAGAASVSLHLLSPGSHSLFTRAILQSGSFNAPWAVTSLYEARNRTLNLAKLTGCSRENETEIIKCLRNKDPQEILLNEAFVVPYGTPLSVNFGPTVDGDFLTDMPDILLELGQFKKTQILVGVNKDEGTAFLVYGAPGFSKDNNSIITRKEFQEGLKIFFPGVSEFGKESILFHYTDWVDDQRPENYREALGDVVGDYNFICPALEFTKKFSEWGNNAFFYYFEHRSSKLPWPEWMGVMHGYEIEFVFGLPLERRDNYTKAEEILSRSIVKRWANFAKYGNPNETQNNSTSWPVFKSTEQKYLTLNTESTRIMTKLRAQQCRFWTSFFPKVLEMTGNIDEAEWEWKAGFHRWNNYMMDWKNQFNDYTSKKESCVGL
AKT1: RAC-alpha serine/threonine-protein kinase (AKT1, Homo sapiens, UniProt P31749)
Sequence of UniProt P31749 (whole entry, looked up): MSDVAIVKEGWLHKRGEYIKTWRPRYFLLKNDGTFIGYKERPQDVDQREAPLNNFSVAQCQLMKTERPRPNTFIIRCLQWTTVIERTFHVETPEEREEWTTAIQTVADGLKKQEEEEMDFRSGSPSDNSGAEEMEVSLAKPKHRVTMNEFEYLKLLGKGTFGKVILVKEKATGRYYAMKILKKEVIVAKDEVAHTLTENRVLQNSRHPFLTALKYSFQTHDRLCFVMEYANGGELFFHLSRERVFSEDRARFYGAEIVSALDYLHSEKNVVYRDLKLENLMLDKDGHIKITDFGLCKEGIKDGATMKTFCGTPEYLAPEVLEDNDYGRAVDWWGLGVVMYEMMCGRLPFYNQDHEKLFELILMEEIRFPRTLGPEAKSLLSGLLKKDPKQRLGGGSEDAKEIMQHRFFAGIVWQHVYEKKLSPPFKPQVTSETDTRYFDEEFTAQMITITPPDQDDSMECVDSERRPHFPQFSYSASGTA
Mycosin-1: Mycosin-1 (Mycolicibacterium thermoresistibile, UniProt G7CDQ2)
OPRM1: Mu-type opioid receptor (OPRM1, Cavia porcellus, UniProt P97266)
Sequence of UniProt P97266 (whole entry, looked up): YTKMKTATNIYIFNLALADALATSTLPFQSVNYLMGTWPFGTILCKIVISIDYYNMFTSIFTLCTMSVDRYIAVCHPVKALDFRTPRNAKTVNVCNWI
Sequence of UniProt O88457 (whole entry, looked up): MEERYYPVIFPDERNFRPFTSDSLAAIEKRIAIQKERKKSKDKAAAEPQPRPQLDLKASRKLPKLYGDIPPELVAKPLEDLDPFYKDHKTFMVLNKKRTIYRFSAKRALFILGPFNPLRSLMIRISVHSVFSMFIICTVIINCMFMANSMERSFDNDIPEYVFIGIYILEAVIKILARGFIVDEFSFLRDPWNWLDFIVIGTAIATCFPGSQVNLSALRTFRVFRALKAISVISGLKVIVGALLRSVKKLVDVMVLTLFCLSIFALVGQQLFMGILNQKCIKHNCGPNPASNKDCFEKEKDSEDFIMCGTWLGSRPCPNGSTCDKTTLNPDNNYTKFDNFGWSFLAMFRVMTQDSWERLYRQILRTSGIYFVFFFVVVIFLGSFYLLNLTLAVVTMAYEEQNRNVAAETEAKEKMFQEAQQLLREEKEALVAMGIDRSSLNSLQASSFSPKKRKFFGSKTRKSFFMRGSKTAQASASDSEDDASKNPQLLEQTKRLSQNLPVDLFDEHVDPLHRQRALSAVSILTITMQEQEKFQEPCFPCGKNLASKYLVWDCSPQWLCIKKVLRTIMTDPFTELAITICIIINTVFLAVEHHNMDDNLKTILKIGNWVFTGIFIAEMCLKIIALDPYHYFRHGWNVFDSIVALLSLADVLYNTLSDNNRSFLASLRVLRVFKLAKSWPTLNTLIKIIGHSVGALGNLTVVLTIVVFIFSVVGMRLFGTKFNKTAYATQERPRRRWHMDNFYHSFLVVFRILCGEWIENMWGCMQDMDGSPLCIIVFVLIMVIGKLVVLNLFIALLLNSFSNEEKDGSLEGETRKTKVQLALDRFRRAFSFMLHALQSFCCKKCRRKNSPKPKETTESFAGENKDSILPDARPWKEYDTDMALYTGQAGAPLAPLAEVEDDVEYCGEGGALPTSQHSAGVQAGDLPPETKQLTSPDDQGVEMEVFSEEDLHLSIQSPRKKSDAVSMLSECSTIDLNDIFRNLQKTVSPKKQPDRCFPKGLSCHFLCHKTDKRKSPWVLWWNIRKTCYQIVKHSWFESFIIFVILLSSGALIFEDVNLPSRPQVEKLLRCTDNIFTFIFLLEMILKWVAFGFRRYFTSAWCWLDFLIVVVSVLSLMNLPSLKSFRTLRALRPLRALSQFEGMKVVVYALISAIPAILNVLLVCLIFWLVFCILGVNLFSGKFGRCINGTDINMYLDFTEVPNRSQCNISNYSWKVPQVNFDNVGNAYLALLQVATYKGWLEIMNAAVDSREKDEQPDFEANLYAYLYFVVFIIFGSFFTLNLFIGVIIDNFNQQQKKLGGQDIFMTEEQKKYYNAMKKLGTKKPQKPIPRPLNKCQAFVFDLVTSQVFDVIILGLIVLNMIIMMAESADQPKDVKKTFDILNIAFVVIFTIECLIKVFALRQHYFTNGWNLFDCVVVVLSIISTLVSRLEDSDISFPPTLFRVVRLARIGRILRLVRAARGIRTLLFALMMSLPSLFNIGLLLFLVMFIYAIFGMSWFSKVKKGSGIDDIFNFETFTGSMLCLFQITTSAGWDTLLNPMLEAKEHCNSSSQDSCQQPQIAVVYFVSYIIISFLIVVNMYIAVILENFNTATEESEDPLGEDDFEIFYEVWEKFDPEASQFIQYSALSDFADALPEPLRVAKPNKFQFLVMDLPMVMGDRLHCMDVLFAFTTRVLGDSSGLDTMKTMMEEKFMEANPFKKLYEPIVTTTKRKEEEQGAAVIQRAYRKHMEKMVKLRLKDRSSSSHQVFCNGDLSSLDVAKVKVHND
Sequence of UniProt P28887 (whole entry, looked up): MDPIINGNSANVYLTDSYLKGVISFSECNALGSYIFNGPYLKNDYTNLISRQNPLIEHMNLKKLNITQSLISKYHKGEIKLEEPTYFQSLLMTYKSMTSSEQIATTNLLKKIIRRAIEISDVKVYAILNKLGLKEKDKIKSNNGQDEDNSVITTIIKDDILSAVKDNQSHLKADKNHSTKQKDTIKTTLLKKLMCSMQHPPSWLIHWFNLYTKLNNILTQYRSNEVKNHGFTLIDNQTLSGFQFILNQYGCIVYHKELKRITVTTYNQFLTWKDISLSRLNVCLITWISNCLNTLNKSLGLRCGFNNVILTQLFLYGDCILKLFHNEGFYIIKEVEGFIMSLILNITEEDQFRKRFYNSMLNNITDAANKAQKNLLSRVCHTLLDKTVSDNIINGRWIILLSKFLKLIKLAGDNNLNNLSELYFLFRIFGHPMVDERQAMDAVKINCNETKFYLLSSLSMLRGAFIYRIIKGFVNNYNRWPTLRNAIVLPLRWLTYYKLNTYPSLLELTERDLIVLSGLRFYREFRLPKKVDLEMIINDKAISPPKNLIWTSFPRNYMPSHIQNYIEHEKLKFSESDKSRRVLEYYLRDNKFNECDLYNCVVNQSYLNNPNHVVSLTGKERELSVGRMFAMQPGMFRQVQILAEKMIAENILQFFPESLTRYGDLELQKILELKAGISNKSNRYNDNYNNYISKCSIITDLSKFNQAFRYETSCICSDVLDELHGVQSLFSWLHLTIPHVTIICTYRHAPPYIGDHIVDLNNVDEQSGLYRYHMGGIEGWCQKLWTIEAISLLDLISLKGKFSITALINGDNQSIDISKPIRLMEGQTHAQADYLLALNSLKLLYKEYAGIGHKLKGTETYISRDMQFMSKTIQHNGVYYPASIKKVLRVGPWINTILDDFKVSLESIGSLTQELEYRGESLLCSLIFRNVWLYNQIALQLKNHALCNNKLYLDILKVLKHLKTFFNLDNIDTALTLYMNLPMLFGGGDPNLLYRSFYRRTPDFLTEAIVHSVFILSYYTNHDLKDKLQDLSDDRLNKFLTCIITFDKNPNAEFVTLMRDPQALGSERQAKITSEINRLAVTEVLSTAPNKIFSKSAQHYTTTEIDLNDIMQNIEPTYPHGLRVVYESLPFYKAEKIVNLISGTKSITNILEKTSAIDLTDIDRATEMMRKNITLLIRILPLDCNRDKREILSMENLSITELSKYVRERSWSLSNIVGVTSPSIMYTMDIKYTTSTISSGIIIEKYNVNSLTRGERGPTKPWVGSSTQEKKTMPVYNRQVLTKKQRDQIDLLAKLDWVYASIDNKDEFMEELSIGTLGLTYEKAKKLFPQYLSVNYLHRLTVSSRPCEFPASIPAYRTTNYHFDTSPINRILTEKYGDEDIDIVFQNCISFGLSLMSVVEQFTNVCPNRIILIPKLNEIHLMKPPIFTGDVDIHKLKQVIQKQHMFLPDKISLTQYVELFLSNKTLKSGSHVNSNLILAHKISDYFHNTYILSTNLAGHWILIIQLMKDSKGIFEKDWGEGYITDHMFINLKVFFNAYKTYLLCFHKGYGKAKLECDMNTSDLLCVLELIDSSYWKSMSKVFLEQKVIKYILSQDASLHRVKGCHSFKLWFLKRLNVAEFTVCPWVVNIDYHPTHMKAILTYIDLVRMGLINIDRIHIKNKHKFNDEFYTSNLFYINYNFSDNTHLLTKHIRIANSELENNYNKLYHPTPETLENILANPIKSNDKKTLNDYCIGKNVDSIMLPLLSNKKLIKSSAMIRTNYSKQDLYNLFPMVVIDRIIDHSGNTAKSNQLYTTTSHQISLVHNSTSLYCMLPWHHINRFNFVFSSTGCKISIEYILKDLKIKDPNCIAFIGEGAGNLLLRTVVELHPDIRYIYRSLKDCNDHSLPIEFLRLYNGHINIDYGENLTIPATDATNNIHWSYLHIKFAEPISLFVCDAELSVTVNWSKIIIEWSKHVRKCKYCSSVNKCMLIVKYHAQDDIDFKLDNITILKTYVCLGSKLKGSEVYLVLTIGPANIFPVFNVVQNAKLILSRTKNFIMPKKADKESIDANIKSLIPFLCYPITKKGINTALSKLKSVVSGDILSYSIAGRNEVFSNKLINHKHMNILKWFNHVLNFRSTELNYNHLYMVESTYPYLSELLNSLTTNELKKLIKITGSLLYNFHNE

With `O=S(=O)(CCc1cn(-c2cnc3ccccc3c2)nn1)N1CCc2ccccc2C1` the inhibition was 18.6% (BCHE; enzyme activity, inhibitor; 20 µM).
`CC(=O)NC(Cc1ccc(Br)c(Cl)c1)C(=O)N[C@@H](C)C(=O)N1CCC[C@H]1C(=O)N1CCC[C@H]1C(=O)N[C@@H](CCC(=O)O)C(=O)N[C@@H](Cc1c[nH]cn1)C(=O)N[C@@H](CO)C(=O)N[C@H](C(=O)N[C@@H](C)C(N)=O)[C@@H](C)OP(=O)(O)O` (stereo partly drawn) has an inhibition of 0.08% (AKT1; enzyme activity, inhibitor; 10 µM).
For `C[C@H](NC(=O)[C@H](CCCNC(=N)N)NC(=O)[C@H](CCC(=O)O)NC(=O)[C@H](CCCNC(=N)N)NC(=O)[C@H](CCCNC(=N)N)NC(=O)[C@@H](NC(=O)[C@H](CCCNC(=N)N)NC(=O)[C@H](C)NC(=O)[C@H](CCCNC(=N)N)NC(=O)[C@H](CCC(=O)O)NC(=O)[C@@H](N)CCCNC(=N)N)[C@@H](C)O)C(=O)N[C@@H](CCCNC(=N)N)C(=O)N[C@H](C(=O)N[C@@H](CCCNC(=N)N)C(=O)N[C@@H](CCC(=O)O)C(=O)N[C@@H](CCCNC(=N)N)C(=O)N[C@@H](C)C(=O)N[C@@H](CCCNC(=N)N)C(=O)N[C@H](C(=O)N[C@@H](CCCNC(=N)N)C(=O)O)[C@@H](C)O)[C@@H](C)O`, inhibition read “no inhibition” (CLK2; enzyme activity; 100 µM).
The inhibition of `CC(C)[C@H]1NC(=O)[C@H](CO)NC(=O)c2cc3cc(c2)C(=O)NC[C@H](NC(=O)[C@H](Cc2c[nH]cn2)NC(=O)[C@H](Cc2ccc(C(F)(F)P(=O)(O)O)cc2)NC(=O)[C@@H]2CCCN2C1=O)C(=O)N[C@@H](Cc1ccccc1)C(=O)N[C@@H](Cc1ccc2ccccc2c1)C(=O)N[C@@H](CCCNC(=N)N)C(=O)N[C@@H](CCCNC(=N)N)C(=O)N[C@@H](CCCNC(=N)N)C(=O)N[C@@H](CCCNC(=N)N)C(=O)N[C@H](C(=O)N[C@@H](CCCCN)C(N)=O)CNC3=O` is reported as ≤ 10% (PTPN3 (Homo sapiens, UniProt P26045); enzyme activity, inhibitor, absorbance; 1 µM).
`N#CC1(c2ccc3c(N)ncnn23)OC(COP(=O)(O)OP(=O)(O)OP(=O)(O)O)C(O)C1O` (stereo not drawn) — result for inhibition: “inhibited” (RNA-directed RNA polymerase L (Human respiratory syncytial virus A, UniProt P28887); RNA synthesis; concentration not given).
For `C/C(=N\OCCCN1CCCCC1)c1ccc(C(F)(F)F)cc1`, the inhibition was > 50% (SLC6A4 (Homo sapiens, UniProt P31645); serotonin uptake, inhibitor; 10 µM).
`NCC(CCC(N)C(=O)O)CC1OC(n2cnc3c(N)ncnc32)C(O)C1O` (stereo not drawn) has an inhibition of > 50% (SMYD2 (Homo sapiens, UniProt Q9NRG4); enzyme activity, inhibitor; 20 µM).
With `Cc1ccc(C(=O)/C=C/c2ccc(N(C)CCO)cc2)o1` the inhibition was 80.7 to 92.5% (PTGS2 (Homo sapiens, UniProt P35354); enzyme activity, inhibitor, ELISA; 40 µg/mL).
`O=C(O)CCCC(=O)O` has an inhibition of 61.4 ± 2.09% (ACHE (Homo sapiens, UniProt P22303); enzyme activity, inhibitor; 250 µg/mL).
With `S=C(NCc1ccccn1)NCc1ccccn1` the inhibition was 59.1% (BCHE; enzyme activity, inhibitor, Ellman; 250 µg/mL).
`N=C(N)NN=C1C=C2CC(=NNC(=N)N)C=C2C1` has an inhibition of 73% (Mycosin-1; enzyme activity; 150 µM; reference: DMSO control).
For `CC(C)C[C@H](NC(=O)[C@@H]1CCCN1C(=O)[C@H]1NC(=O)[C@H](Cc2ccccc2)NC(=O)CNC(=O)[C@H](NC(=O)[C@@H](N)Cc2ccc(O)cc2)C(C)(C)SSC1(C)C)C(=O)N[C@@H](Cc1c[nH]c2ccccc12)C(=O)NCc1cc(C(F)(F)F)cc(C(F)(F)F)c1`, the inhibition was 26% (OPRM1; electrically stimulated contraction, agonist; guinea pig isolated ileum; 1 µM).
The inhibition of `CCN(CC)c1ncnc2c1ncn2[C@@H]1O[C@H](COP(=O)(O)OP(=O)(O)C(Br)(Br)P(=O)(O)O)[C@@H](O)[C@H]1O` is reported as 50% (Ectonucleoside triphosphate diphosphohydrolase 2 (Rattus norvegicus, UniProt O35795); enzyme activity, inhibitor; 1 mM).
`C=CC1CN2CCC1CC2C(O)c1ccnc2ccc(-c3ccccc3)cc12` (stereo not drawn) gave an inhibition of 44.7% (SCN5A (Homo sapiens, UniProt Q14524); ion current, inhibitor, patch clamp; HEK-293T; 10 µM, pH 7.3).
The inhibition of `CC(C)CC(O)(CC(C)C)c1cn(C(=O)N2CCCC2)nn1` is reported as 50 to 60% (Prolyl endopeptidase-like (Prepl, Mus musculus, UniProt Q8C167); enzyme activity; mouse, brain; i.p., 0.8 mg/kg, apparent, not considered true).
For `CC(C)OC(=O)c1ccc(OC(=O)C2CCNCC2)cc1`, the inhibition was > 50% (clpP (Staphylococcus aureus, UniProt Q2G036); enzyme activity, inhibitor; 1 µM).
The inhibition of `C=C(C)[C@]12C[C@@H](C)[C@@]34O[C@](Cc5ccccc5)(O[C@@H]1[C@@H]3C=C(COC(=O)Cc1cc(I)c(O)c(OC)c1)C[C@]1(O)C(=O)C(C)=C[C@@H]41)O2` is reported as -3 ± 0.55% (Trpv1 (Rattus norvegicus, UniProt O35433); acid-evoked calcium influx, antagonist; HEK293, rat; 11.25 µM, pH 5).
`COc1cc(/N=N/C(C#N)C#N)cc(OC)c1OC` gave an inhibition of 68% (Mycosin-1; enzyme activity; 150 µM; reference: DMSO control).
For `CCCC[C@@H]1NC(=O)[C@H](Cc2ccccc2)NC(=O)CNC(=O)[C@H](NC(=O)[C@@H](N)Cc2ccc(O)cc2)C(C)(C)SSC(C)(C)[C@@H](C(=O)N[C@@H](Cc2c[nH]c3ccccc23)C(=O)NCc2cc(C(F)(F)F)cc(C(F)(F)F)c2)NC(=O)[C@@H]2CCCN2C1=O`, the inhibition was 6% (OPRM1; electrically stimulated contraction, agonist; guinea pig isolated ileum; 1 µM).
The inhibition of `CCN(Cc1ccccc1)C(=O)CCc1nc(CN2CCN(C(=O)Cc3ccc(OC)c(OC)c3)CC2)no1` is reported as 46.8 ± 7.03% (Sodium channel protein type 11 subunit alpha (Scn11a, Rattus norvegicus, UniProt O88457); ion current, inhibitor, whole-cell patch clamp; rat DRG neurons; 10 µM).
`O=C(O)/C=C/c1ccc(O)cc1` has an inhibition of 48.1% (BCHE; enzyme activity, inhibitor, Ellman; 62.5 µg/mL).
For `O=c1c(O)c(-c2cc(O)ccc2O)oc2cc(O)cc(O)c12`, the inhibition was 53.2% (BCHE; enzyme activity, inhibitor, Ellman; 125 µg/mL).
`Cc1ccc(N2CC3CCC(C2)N3C)cc1C(=O)N[C@H](C)c1cc(-c2cnn(C)c2)nc2ccccc12` — result for inhibition: “no inhibition” (Cathepsin K (CTSK, Homo sapiens, UniProt P43235); enzyme activity; concentration not given).
`CC(C)OC(=O)C(n1cccn1)n1cccn1.F[P-](F)(F)(F)(F)F.[Cu+].c1ccc(P(c2ccccc2)c2ccccc2)cc1` gave an inhibition of ~90% (P4HB (Homo sapiens, UniProt P07237); enzyme activity, inhibitor; 50 µM).
For `O=C(O)/C=C/c1cc(O)cc(O)c1`, the inhibition was 74.1% (BCHE; enzyme activity, inhibitor, Ellman; 500 µg/mL).
`[Cl][Au-][P+](c1ccccc1)(c1ccccc1)c1cc[cH-]c1.[Cl][Au-][P+](c1ccccc1)(c1ccccc1)c1cc[cH-]c1.[Cl][Ti+2][Cl]` gave an inhibition of ≥ 50% (AKT1; kinase activity; 10 µM).
`C=C1C(=O)N[C@@H](C)C(=O)N(C)[C@@H](C)C(=O)N[C@@H]([C@H](OC(=O)[C@@H](NC(C)=O)[C@H](O)C(C)C)C(C)C)C(=O)N(C)[C@@H]([C@@H](C)OC)C(=O)O[C@H](C)[C@H](NC(C)=O)C(=O)O[C@H](Cc2ccccc2)C(=O)N1C` — result for inhibition: “no effect” (Guanine nucleotide-binding protein subunit alpha-11 (Homo sapiens, UniProt P29992, Q209L); basal IP1 accumulation, inhibitor; HEK293 expressing Gα11 Q209L; concentration not given).

For quick reference, copied from above:
For `CCCC[C@@H]1NC(=O)[C@H](Cc2ccccc2)NC(=O)CNC(=O)[C@H](NC(=O)[C@@H](N)Cc2ccc(O)cc2)C(C)(C)SSC(C)(C)[C@@H](C(=O)N[C@@H](Cc2c[nH]c3ccccc23)C(=O)NCc2cc(C(F)(F)F)cc(C(F)(F)F)c2)NC(=O)[C@@H]2CCCN2C1=O`, the inhibition was 6% (OPRM1; electrically stimulated contraction, agonist; guinea pig isolated ileum; 1 µM).
